Measured values from different studies.
Every numbered part comes from another study and shows a few of its results, in no order. “And” joins repeats or separate records; there may be more than shown.

Set 1 — cell line: U-87 MG; concentration: concentration not given; reference: DMSO
SMILES: CCN1/C(=C/C=C2\CCCC(/C=C/C3=[N+](CC)c4ccccc4C3(C)C)=C2NCCCCCCCCN2CCC(Nc3nc4ccccc4n3Cc3ccc(F)cc3)CC2)C(C)(C)c2ccccc21
| refers to | log2 fold change |
| --- | --- |
| GPRC5A mRNA | 2.84 |
| LHX6 mRNA | -1.58 |
| TCIRG1 mRNA | -1.06 |
| PCDHGC3 mRNA | -1.23 |
| EBP mRNA | -1.19 |
| PGM3 mRNA | 1.23 |
| NXF1 mRNA | 0.981 |
| RBM7 mRNA | 0.862 |
| DIRAS1 mRNA | 1.44 |
| STAB1 mRNA | -4.61 |
| ELOVL4 mRNA | 1.04 |
| NLRC5 mRNA | -2.49 |
| PLCL2 mRNA | -0.93 |
| TIMP3 mRNA | -1.56 |

Set 2 — cell line: HCC1569; method: in-cell western; refers to: CDK1 phospho-Thr14; concentration: 10000 nM
| SMILES | pCDK1 (Thr14) level |
| --- | --- |
| Cc1ncc(-c2cc3c(C(F)(F)F)c(-c4c(C)ccc(O)c4C)cnc3[nH]2)cn1 | 76.2 RLU and 79.1 RLU |
| Cc1ccc(O)c(C)c1-c1cnc2[nH]c(-c3cnc(N)nc3)cc2c1C#N | 77.2% and 78.1% |
| Cc1ccc(O)c(C)c1-c1cnc2[nH]c(-c3cnc(N4CCC5(CC4)CC(CN4CCN(c6ccc(NC7CCC(=O)NC7=O)cc6F)CC4)C5)nc3)cc2c1C#N (centres unmarked) | 152 RLU and 135 RLU |
| Cc1ncc(-c2cc3c(N)c(-c4c(C)ccc(O)c4C)cnc3[nH]2)cn1 | 39.3 RLU and 33 RLU |
| Cc1ccc(O)c(C)c1-c1cnc2[nH]c(-c3cnc(N4CCC(CCN5CCN(c6ccc(NC7CCC(=O)NC7=O)cc6F)CC5)CC4)nc3)cc2c1C#N (centres unmarked) | 155 RLU and 158 RLU |
| Cc1ccc(O)c(C)c1-c1cnc2[nH]c(-c3cnc(N4CCC(CCN5CCN(c6ccc(N7CCC(=O)NC7=O)cc6F)CC5)CC4)nc3)cc2c1C#N | 100 RLU and 105 RLU |
| Cc1ncc(-c2cc3c(C(N)=O)c(-c4c(C)ccc(O)c4C)cnc3[nH]2)cn1 | 31.1 RLU and 31.3 RLU |
| Cc1ccc(O)c(C)c1-c1cnc2[nH]c(-c3cnc(N4CCC(CN5CCN(c6ccc7c(c6)CN(C6CCC(=O)NC6=O)C7=O)CC5)CC4)nc3)cc2c1C#N (centres unmarked) | 107 RLU and 111 RLU |

Set 3 — organism: Arabidopsis thaliana; strain: Col-0
SMILES: O=C(O)C1(O)Oc2cc(Cl)ccc2N(Cc2ccccc2)C1=O (centres unmarked)
| concentration | notes | hypocotyl length |
| --- | --- | --- |
| 12.5 µg/mL | seed germination, single repetition | 2.02 cm and 1.99 cm and 2.01 cm and 1.96 cm |
| 100 µg/mL | seed germination, repetition mean | 1.23 cm |
| 3.125 µg/mL | seed germination, repetition mean | 2.1 cm |
| 50 µg/mL | seed germination, repetition mean | 1.32 cm |
| 12.5 µg/mL | seed germination, repetition mean | 2.02 cm |
| 25 µg/mL | seed germination, repetition mean | 1.65 cm |
| 3.125 µg/mL | seed germination, single repetition | 2.11 cm and 2.13 cm and 2.1 cm and 2.12 cm and 2.07 cm |
| 6.25 µg/mL | seed germination, single repetition | 2.05 cm and 2.07 cm |
| 25 µg/mL | seed germination, single repetition | 1.67 cm and 1.7 cm and 1.63 cm and 1.6 cm and 1.62 cm |

Mixed results
KRAS Q61H: GTPase KRas (KRAS, Homo sapiens, UniProt P01116, Q61H)
| SMILES | target | assay | test system | conditions | quantity | value |
| --- | --- | --- | --- | --- | --- | --- |
| C=CC(=O)N1CCN(c2nc(OC[C@@H]3CCCN3C)nc3c2CCN(c2cccc4cccc(C)c24)C3)C[C@@H]1CC#N | GTPase KRas (KRAS, Homo sapiens, UniProt P01116) | target engagement in cells, BRET |  |  | IC50 | 0.62 µM |
| CN1CCC[C@H]1COc1nc2c(c(N3CCN(C(=O)C(F)(F)F)[C@@H](CC#N)C3)n1)CCN(c1cccc3cccc(Cl)c13)C2 | KRAS Q61H | target engagement in cells, BRET |  |  | IC50 | 7 µM |
| C#Cc1cccc2cc(O)cc(-c3ncc4c(N5CC6CCC(C5)N6)nc(OCC56CCCN5CCC6)nc4c3F)c12 | GTPase HRas (HRAS, Homo sapiens, UniProt P01112) | binding, competitor, NanoBRET | HEK293 | 41.1 nM | normalized BRET | 92.5% and 108% and 112% and 84.2% |
| CN1CCC[C@H]1COc1nc2c(c(N3CCN(C(=O)C4CC4)[C@@H](CC#N)C3)n1)CCN(c1cccc3cccc(Cl)c13)C2 | KRAS Q61H | target engagement in cells, BRET |  |  | IC50 | 3.3 µM |
